Experimental data gathered from unrelated publications.
Compare with care: the assays were run in different laboratories. Several values in a cell are separate wells, animals, samples, runs or records. Numbers after ± are the reported error.

CCN1CCN(Cc2ccc(Nc3ncc(F)c(-c4cc(F)c5nc(C)n(C(C)C)c5c4)n3)nc2)CC1 has a Vss/F of 1720 L (healthy human, fasted; oral, 150 mg, 3 x 50 mg tablets).
With CC[C@H](C)[C@H](NC(=O)CN)C(=O)N[C@@H](C)C(=O)N[C@@H](CC(=O)O)C(=O)N[C@@H](C)C(=O)N[C@H](C(=O)N[C@@H](CCCCN)C(=O)N[C@@H](CCCCN)C(=O)N[C@H](C(=O)N[C@@H](C)C(=O)N[C@@H](CCCCN)C(=O)N[C@@H](C)C(=O)N[C@@H](CC(C)C)C(=O)NCC(N)=O)[C@@H](C)CC)[C@@H](C)CC the helix content was 45% (circular dichroism; 10 mM SDS; 100 µM).
With Cn1cncc1[C@@](N)(c1ccc(Cl)cc1)c1ccc2c(c1)c(-c1cccc(Cl)c1)cc(=O)n2C the radioactivity excreted was roughly 80% (healthy male humans, faeces; oral, 50 mg, [14C]-labelled; relative to: dose).
Under “literature range of log K”, c1ccc2c(c1)-c1cccc3c1c-2cc1ccccc13 is recorded as 4.77 to 5.64 log units (PDMS-water partitioning; PAH compilation).
For CN[C@@H]1COc2c(S(=O)(=O)NC(=O)Nc3c4c(cc5c3CCC5)CCC4)cnn2C1, the renal clearance was 10.1 mL/min (human, urine; oral, 450 mg, 0-48 h).
CO[C@H]1C[C@@H]2CC[C@@H](C)[C@@](O)(O2)C(=O)C(=O)N2CCCC[C@H]2C(=O)O[C@H]([C@H](C)C[C@@H]2CC[C@@H](OC(=O)NCCOCCOCCOCCOCCOCCOCCOCCOCCC(=O)N3CCc4cc(Cn5nc(-c6ccc7oc(N)nc7c6)c6c(N)ncnc65)ccc4C3)[C@H](OC)C2)C[C@@H](O)[C@H](C)/C=C(\C)[C@@H](O)[C@@H](OC)C(=O)[C@H](C)C[C@H](C)/C=C/C=C/C=C/1C gave a Cmax of 0.0628 µg/mL (human patients, plasma; intravenous, 1.6 mg, cycle 1 day 15, weekly dosing).
For O=C(Nc1nc2cccc(-c3ccc(CN4CCS(=O)(=O)CC4)cc3)n2n1)C1CC1, “treatment-emergent adverse events” read 0% (measured: renal and urinary disorders; rheumatoid arthritis patients; oral, 150 mg once daily, 4 weeks, any relatedness).
For Cc1cc([C@H]2C[C@H]3[C@@H](C)SC(N)=N[C@@]3(c3ccc(F)cc3F)CO2)on1, the brain concentration was 0.201 µM (male 129/SVE mouse, brain; subcutaneous, 50 mg/kg, 9 h).
CC[C@H](C)[C@@H]1NC(=O)[C@@](C)(NC(=O)[C@H](CCCNC(=N)N)NC(=O)[C@H](CC(C)C)NC(=O)[C@@H](NC(=O)[C@H](CCC(N)=O)NC(=O)[C@H](CC(C)C)NC(C)=O)[C@@H](C)O)CCCC=CCCC[C@@](C)(C(=O)N[C@@H](CC(C)C)C(=O)N[C@@H](Cc2ccc3ccccc3c2)C(N)=O)NC(=O)[C@H](CCCNC(=N)N)NC(=O)[C@H](CCC(N)=O)NC1=O gave a remaining compound of 91.7% (LC-MS; BALB/c nude mouse, plasma; 2 µM, 0.5 h).
NC1(C(=O)N[C@@H](CCO)c2ccc(Cl)cc2)CCN(c2nc[nH]c3nccc2-3)CC1 — result for “weight decreased incidence”: 13.3% (human mCRPC patients; oral, twice daily, 4/7 days, any grade, treatment-related, with: enzalutamide 160 mg daily).
Under “renal clearance (0-24 h)”, COc1cc(C(=O)NC2CCN(C)CC2)c(F)cc1Nc1ncc(C(F)(F)F)c(Oc2cccc3c2C(=O)N(C)C3)n1 is recorded as 19.7 mL/min (human patients, urine and plasma; oral, 50 mg single dose, geometric mean).
The accuracy of COC(=O)C1=CO[C@@H](O[C@@H]2O[C@H](CO)[C@@H](O)[C@H](O)[C@H]2O)[C@@H]2C(CO)=CC[C@H]12 is reported as 94.8% (three freeze-thaw cycles; rat plasma; 8 ng/mL, -70 °C freeze).
CC[C@@](O)(c1cnc(C(F)(F)F)c(Cl)c1)c1c2ccn(C3CC3)c(=O)c2nn1C — result for “volume of distribution at steady state”: 3.1 ± 0.207 L/kg (Sprague-Dawley rat, male, plasma; intravenous, 1 mg/kg).
O=C(Cc1ccc2ccccc2c1)Nc1cc(C2CCC2)[nH]n1 gave an accuracy of 98.7% (extracted mouse plasma; 0.5 ng/mL, 24 h, 4 °C, autosampler stability).
For O=C(O)CCC(=O)O.[2H]C([2H])([2H])Oc1cc(C)c2[nH]ccc2c1CN1CC[C@@H](C2CC2)C[C@H]1c1ccc(C(=O)O)cc1, the Vss/F was 95.4 L (human, plasma; 100 mg twice daily, day 10, multiple ascending dose).
COc1ncc(-c2nc3c(n2C(C)C)[C@H](c2ccc(Cl)cc2)N(c2cc(Cl)cn(C)c2=O)C3=O)c(OC)n1 has an AUC(0-last) of 0.33 µg·h/mL (LC-MS/MS; human, plasma; oral, 7.5 mg, cycle 1 day 14, low-dose arm).
C[C@H]1Oc2cc(cnc2N)-c2c(nn(C)c2C#N)CN(C)C(=O)c2ccc(F)cc21: “free plasma concentration” 0.85 µM (Balb/c nude mouse, female, plasma; 5 mg/kg, single dose, 1 h).
COc1ccc2nc([S@@+]([O-])Cc3ncc(C)c(OC)c3C)[nH]c2c1 has an AUC of 0.228 µg·h/mL (human, dried blood spots; oral, 10 mg omeprazole, control arm).
Under “participants with TEAE”, Cc1ccc(Sc2ccccc2N2CCNCC2)c(C)c1 is recorded as 0% (measured: blood uric acid increased; healthy adult men; oral, 20 mg daily, 12 days).
CCN1/C(=C/C(C)=O)Sc2ccc(F)cc21 gave a QRS duration of 36 ± 1 ms (cynomolgus monkey; oral, 100 mg/kg, 2 h post-dose).
C=C[C@@](C)(/C=C/c1ccc(O)cc1)CCC=C(C)C has an accuracy of 94.7% (post-procedure stability; rat plasma; 200 ng/mL, 1 h, room temperature).
CNC(=O)c1ccc(-c2cnc3ncc(Cc4ccc5ncccc5c4)n3n2)cc1F — result for “abdominal pain incidence”: 18% (HCC patients; oral, 600 mg twice daily, all grades RP2D expansion).
CCCCC[C@H](O)CC[C@@H]1[C@H]2Cc3cccc(OCC(=O)O)c3C[C@H]2C[C@H]1O — result for “geometric mean Cmax”: 0.00099 µg/mL (LC-MS/MS; Japanese PAH patients, plasma; inhaled, 54 µg).
CCC(C)n1ncn(-c2ccc(N3CCN(c4ccc(OCC5COC(Cn6cncn6)(c6ccc(Cl)cc6Cl)O5)cc4)CC3)cc2)c1=O (stereo not shown): “trough plasma concentration” 171 ng/mL (human, plasma; oral, dose not given, day 17 predose, geometric mean).
Under “systemic vascular resistance change”, CNCCOC12CC3(C)CC(C)(CC(Cn4ncc(-c5ccc(N6CCc7cccc(C(=O)Nc8nc9ccccc9s8)c7C6)nc5C(=O)O)c4C)(C3)C1)C2 is recorded as 89% (anaesthetised male beagle dogs; intravenous bolus, 0.03 mg/kg, 120 min; relative to: baseline).
The tumour-to-heart ratio of COc1cccc(OC)c1-c1cc(C(=O)NC2(C(=O)O)C3CC4CC(C3)CC2C4)nn1-c1ccc(C(=O)N(C)CCCN(C)CCCN(C)C(=O)CN2CCN(CC(=O)[O-])CCN(CC(=O)[O-])CCN(CC(=O)[O-])CC2)cc1C(C)C.[177Lu+3] (stereo not shown) is reported as 67.8 (mouse, HT-29 xenograft; 72 h post injection, biodistribution; relative to: tumour over heart uptake).
Cc1cc(-c2nccc3c2ccn3CC(=O)Nc2ccc(-c3cnccn3)cn2)ccn1: “subjects with cardiac disorders” 25% (human; 5 mg once daily, multiple ascending dose).
C=CCN1CC(=O)N2[C@@H](Cc3ccc(O)cc3F)C(=O)N(Cc3cccc(N4CC(N5CCN(CC)CC5)C4)n3)C[C@@H]2N1C(=O)NCc1ccccc1 — result for “treatment-related ALT increased”: 0% (advanced solid tumour patients; oral, 45 mg twice daily, grade ≥3, dose-escalation).
Cc1nc2cccc(OCC(C)(C)C(=O)NC(C)C)c2c(N)c1C(=O)O gave a PCE/NCE ratio of 0.83 (male Swiss albino CD-1 mouse, bone marrow; oral, 2000 mg/kg, 24 h).
Under “serum LDL change”, CCc1cc(C(=O)NC)c2nccc(N3CCc4c(cc(Cn5ccnc5)cc4-c4cn(C)nc4C(F)(F)F)C3=O)c2c1 is recorded as 6.5% (Sprague Dawley rats; oral, 50 mg/kg once daily, 7 days; relative to: vehicle).
Under “heart rate change”, Cc1c(-c2ccc(N3CCc4cccc(C(=O)Nc5nc6ccccc6s5)c4C3)nc2C(=O)O)cnn1CC12CC3(C)CC(C)(C1)CC(OCCNCC[C@H](O)CO)(C3)C2 is recorded as -9% (beagle dog, male, anaesthetised; intravenous infusion, 0.3 mg/kg/min, 45 (unit not given); relative to: vehicle).
For CC(C)(Sc1ccncc1-c1ccc(C#N)c2ccccc12)C(=O)O, “amount excreted in urine (0-24 h)” read 60.6 µg (human, urine; oral, 5 mg, with: febuxostat 10 mg).
For COCc1cc(C(=O)Nc2cc([C@H]3CC[C@@H](OC(=O)NC(C)C)C3)[nH]n2)n(C)n1, the AUC(0-24h) was 7.05 µM·h (OVCAR-3 xenograft, NOD/SCID gamma mice, plasma; oral, 50 twice daily, PK/PD study).
c1ccc2c(c1)ccc1ccccc12 — result for “literature range of log K”: 3.7 to 4.51 log units (PDMS-water partitioning; PAH compilation).
Cc1cc(NC2CCN(C(=O)OC3CCN(C(=O)/C=C/CN(C)C)C3)CC2)n2ncc(C(C)C)c2n1 (stereo not shown) — result for “patients with adverse event”: 9% (Phase I dose escalation CTCAE v4.0, measured: platelet count decreased; patients with advanced solid tumours; dose not given, QD dosing grade 3 or higher).
N#C[C@@]1(c2ccc3c(N)ncnn23)O[C@H](CO)[C@@H](O)[C@H]1O gave a recovery of 97.4% (plasma protein binding; rat plasma; 100 µM, time not given).
CC(C)[C@H](C(=O)Nc1ccc(C(=O)NO)cc1)c1ccccc1 gave an accuracy of 107% (whole blood; 10.0 ng/mL, 1 h, 4 °C, stability on ice).
C[C@@H](N)C1CCN(S(=O)(=O)c2cccc3cnccc23)CC1 — result for “participants with epistaxis”: 0% (healthy volunteers; 75 mg, fasted).
O=C(O)C1=CO[C@@H](O[C@@H]2O[C@H](CO)[C@@H](O)[C@H](O)[C@H]2O)[C@@H]2C(CO)=CC[C@H]12 has an accuracy of 108% (three freeze-thaw cycles; rat plasma; 8 ng/mL, -70 °C freeze).
CC(C)n1c(C2CCNCC2)nc2c([N+](=O)[O-])c(Br)c(Br)cc21: “amount excreted in urine” 4.81 mg (human, urine; oral, 150 mg, 0-24 h, median, single dose).
CC(C)(C(=O)N1CCOc2c(C#N)cncc2C1)C(F)F: “subjects with keratitis TEAE” 0% (human, both sexes; oral, 10 mg single dose).
The Pruritus incidence of C[C@@H]1COCCN1c1cc(C2([S@](C)(=N)=O)CC2)nc(-c2cc[nH]c3nccc2-3)n1 is reported as 0% (Japanese advanced solid tumour patients; oral, 160 mg twice daily, CTCAE grade ≥3).
Under “cortisol level change”, N#Cc1ccc2c(c1)[C@H]1CCCN(C(=O)c3ccc4[nH]cnc4c3)[C@H]1C2 is recorded as -119 nmol/L (human; 20 mg, end of trial; relative to: baseline).
For CN(C(=O)n1cnc(-c2ccc[n+]([O-])c2)c1)[C@H]1CC[C@H](O)CC1, the concentration was 13.8 ± 0.3 ng/g (Wistar rat, midbrain; oral, 10 mg/kg/day of BIA 10-2474, 24 h, repeated 5 days).
For Cl.[2H]C([2H])([2H])CC(=O)c1cnc(NC(=O)C2CC2)cc1Nc1cccc(-c2ncn(C([2H])([2H])[2H])n2)c1OC, the Vz/F was 142 L (geometric mean; human; oral, 20 mg twice daily, day 7, fed, liquid, multiple dose).
For C[C@H]1CN(C(=O)CC#N)[C@]12CCN(c1ncnc3[nH]ccc13)C2, “subjects with dry skin” read 12.5% (healthy human; oral, 3 mg single).
O=C(c1nc2n(n1)[C@H](c1ccccc1)C[C@@H]2F)C1CC1 gave a renal clearance of 0.183 mL/min (human; 225 mg single dose, mean).
The body weight of O=C(O)CSc1nnc(Br)n1-c1ccc(C2CC2)c2ccccc12 is reported as 38.4 g and 31.3 g and 29 g and 34.6 g and 36 g and 34.9 g (KM mouse, chronic hyperuricaemia model; dose not given, day 19).
For C[Si](C)(C)O[Si](C)(C)C, “entropy of phase change” read 0.225 kJ/(mol·K) (air/water; concentration not given).
For COc1ccc2c(=O)n(C)c(-c3ccccc3)nc2c1, the tissue/plasma ratio was 0.76 (Sprague-Dawley rat, male, heart/plasma; oral, 30 mg/kg, 2 h; relative to: heart over plasma).
With CNC(=O)c1cc(Oc2ccc(NC(=O)Nc3ccc(Cl)c(C(F)(F)F)c3)c(F)c2)cc[n+]1[O-] the accuracy was 98.6% (long-term stability; mouse plasma; 25 ng/mL, 6 months, -80 °C).
Under “treatment-emergent adverse events”, O=C(COc1ccc(Cl)cc1)NC12CC(c3nnc([C@H]4C[C@@H](OC(F)(F)F)C4)o3)(C1)C2 is recorded as 5.6% (measured: Headache; healthy humans, both sexes; oral, dose not given, single ascending dose, fasted; relative to: subjects).
